{"data": "Assay results pooled from the literature", "note": "Numbered parts are unrelated; each lists some results of a single study. ± gives the spread as reported.", "UniProt Q86U86, sequence (whole entry, unmodified, looked up)": "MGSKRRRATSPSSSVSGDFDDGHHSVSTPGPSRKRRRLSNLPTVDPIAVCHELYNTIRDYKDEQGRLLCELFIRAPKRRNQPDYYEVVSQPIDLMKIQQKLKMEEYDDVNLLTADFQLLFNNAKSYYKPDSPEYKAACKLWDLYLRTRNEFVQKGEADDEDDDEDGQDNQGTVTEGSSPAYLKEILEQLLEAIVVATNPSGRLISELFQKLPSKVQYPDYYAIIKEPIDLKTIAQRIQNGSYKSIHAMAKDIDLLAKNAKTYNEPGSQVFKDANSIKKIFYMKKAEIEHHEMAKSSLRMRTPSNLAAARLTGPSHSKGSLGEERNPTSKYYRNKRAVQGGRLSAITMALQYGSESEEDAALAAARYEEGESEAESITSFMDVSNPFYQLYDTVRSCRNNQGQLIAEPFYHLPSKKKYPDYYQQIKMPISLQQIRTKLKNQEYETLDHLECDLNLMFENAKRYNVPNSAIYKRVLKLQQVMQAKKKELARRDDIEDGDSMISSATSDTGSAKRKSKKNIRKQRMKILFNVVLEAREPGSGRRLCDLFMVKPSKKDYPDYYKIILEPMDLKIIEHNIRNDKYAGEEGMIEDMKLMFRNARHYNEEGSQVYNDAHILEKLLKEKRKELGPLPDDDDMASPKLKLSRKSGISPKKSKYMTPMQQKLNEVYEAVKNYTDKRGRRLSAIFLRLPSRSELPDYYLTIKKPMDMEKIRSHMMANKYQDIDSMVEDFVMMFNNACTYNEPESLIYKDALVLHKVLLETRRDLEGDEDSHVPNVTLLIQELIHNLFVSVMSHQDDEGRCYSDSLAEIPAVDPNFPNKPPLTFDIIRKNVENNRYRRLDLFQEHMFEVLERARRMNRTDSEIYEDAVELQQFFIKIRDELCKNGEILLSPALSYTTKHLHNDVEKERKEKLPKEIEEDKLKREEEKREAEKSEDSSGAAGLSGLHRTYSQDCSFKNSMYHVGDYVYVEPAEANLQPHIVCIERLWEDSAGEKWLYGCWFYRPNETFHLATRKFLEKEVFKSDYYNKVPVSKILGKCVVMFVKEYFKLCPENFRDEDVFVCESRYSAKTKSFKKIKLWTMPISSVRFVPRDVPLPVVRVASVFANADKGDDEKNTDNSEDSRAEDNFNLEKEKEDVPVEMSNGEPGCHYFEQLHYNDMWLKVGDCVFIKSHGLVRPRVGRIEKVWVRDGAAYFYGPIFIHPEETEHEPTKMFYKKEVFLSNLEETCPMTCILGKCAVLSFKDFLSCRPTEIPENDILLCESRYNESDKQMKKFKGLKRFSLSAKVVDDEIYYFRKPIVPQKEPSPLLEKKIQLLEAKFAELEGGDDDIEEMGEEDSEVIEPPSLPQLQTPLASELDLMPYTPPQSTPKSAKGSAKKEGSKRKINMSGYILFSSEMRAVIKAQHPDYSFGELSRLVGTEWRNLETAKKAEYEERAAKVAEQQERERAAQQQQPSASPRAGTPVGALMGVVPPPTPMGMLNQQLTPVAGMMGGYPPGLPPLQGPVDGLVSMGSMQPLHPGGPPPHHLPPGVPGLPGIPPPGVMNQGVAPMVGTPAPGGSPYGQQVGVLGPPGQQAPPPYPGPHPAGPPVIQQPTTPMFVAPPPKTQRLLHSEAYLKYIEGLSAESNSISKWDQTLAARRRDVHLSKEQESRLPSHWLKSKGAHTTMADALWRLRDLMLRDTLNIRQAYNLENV", "UniProt Q9H3N8, sequence (whole entry, looked up)": "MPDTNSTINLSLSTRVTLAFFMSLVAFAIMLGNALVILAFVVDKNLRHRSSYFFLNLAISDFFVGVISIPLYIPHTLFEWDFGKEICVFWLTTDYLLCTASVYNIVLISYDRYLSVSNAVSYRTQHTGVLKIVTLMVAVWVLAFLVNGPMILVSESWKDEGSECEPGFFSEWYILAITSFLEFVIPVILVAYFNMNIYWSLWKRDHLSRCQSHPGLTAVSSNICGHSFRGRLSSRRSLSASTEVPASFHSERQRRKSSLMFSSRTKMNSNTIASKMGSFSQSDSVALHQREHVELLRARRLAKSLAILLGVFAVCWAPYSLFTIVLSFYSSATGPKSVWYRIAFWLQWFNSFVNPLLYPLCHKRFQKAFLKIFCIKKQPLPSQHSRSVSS", "UniProt P25100, sequence (whole entry, looked up)": "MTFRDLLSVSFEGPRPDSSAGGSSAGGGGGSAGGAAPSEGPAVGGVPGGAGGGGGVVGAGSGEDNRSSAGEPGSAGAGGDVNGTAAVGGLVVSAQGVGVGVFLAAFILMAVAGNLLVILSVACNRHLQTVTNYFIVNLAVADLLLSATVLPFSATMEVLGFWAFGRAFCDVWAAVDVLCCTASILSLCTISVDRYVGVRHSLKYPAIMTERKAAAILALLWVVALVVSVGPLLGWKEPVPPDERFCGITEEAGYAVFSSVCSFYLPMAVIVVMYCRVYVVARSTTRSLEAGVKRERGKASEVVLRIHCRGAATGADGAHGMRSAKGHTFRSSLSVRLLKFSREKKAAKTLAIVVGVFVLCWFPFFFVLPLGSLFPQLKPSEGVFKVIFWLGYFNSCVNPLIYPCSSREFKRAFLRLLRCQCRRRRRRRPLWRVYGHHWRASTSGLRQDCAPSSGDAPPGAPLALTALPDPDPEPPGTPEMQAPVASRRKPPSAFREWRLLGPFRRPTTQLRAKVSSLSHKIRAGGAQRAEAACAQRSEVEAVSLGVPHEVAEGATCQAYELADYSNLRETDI", "UniProt P08631, sequence (whole entry, looked up)": "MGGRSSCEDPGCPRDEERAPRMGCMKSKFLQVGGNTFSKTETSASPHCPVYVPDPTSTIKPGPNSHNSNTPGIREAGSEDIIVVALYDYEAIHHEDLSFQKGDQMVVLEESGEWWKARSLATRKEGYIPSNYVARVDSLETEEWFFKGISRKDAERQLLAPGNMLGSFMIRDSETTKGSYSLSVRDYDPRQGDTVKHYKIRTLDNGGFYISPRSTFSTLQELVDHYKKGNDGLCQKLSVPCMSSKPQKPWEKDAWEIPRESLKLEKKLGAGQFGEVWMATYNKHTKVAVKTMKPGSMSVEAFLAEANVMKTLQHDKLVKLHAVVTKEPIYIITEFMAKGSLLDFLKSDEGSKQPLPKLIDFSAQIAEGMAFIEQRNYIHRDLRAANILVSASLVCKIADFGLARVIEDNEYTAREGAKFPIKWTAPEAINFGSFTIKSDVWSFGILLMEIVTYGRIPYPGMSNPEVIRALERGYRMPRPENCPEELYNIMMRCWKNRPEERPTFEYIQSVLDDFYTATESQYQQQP", "UniProt O15164, sequence (whole entry, unmodified, looked up)": "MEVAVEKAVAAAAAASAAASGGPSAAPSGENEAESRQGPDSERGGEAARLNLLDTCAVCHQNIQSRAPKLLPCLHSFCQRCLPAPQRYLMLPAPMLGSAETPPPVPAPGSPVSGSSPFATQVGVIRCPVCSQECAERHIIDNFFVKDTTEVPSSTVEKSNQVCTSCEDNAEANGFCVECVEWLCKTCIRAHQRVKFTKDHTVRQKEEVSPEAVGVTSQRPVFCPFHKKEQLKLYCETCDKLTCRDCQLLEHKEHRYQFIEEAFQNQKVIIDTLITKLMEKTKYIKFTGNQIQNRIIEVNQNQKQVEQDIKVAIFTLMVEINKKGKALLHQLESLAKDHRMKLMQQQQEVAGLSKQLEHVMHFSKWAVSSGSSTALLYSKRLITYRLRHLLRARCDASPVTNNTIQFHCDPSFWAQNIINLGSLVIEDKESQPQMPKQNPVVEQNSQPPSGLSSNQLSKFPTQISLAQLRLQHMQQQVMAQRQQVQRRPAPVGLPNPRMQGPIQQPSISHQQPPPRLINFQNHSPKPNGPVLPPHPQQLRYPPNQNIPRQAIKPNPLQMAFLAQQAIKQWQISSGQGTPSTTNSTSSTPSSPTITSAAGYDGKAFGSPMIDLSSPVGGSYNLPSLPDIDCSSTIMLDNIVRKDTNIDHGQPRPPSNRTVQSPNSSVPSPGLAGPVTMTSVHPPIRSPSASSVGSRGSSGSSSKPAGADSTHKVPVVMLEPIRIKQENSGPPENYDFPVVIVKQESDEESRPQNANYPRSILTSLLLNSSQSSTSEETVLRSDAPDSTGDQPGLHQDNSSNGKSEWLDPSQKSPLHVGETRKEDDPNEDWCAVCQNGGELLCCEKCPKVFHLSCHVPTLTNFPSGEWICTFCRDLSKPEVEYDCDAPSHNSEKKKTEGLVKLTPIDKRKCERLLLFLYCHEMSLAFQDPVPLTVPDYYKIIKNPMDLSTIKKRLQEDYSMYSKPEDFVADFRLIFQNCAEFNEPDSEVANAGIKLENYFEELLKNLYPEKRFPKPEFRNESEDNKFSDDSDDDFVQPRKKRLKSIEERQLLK", "UniProt P35348, sequence (whole entry, looked up)": "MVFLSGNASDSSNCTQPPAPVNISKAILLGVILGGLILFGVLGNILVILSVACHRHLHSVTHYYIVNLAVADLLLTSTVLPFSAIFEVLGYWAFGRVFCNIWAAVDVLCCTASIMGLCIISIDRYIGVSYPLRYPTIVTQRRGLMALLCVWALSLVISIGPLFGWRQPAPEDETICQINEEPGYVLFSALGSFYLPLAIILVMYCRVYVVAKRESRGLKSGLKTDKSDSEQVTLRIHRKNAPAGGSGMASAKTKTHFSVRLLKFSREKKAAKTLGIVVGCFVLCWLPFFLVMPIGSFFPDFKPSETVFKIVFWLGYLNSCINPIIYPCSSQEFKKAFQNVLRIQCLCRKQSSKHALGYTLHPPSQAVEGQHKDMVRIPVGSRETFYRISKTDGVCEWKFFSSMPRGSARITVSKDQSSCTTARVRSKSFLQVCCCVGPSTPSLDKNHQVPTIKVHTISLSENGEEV", "UniProt Q99720, sequence (whole entry, looked up)": "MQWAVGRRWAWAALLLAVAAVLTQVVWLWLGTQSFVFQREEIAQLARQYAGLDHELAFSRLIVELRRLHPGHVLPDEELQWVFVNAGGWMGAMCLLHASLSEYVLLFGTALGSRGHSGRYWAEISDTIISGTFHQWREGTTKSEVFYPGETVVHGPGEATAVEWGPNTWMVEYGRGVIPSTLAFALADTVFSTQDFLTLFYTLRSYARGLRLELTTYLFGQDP"}
{"data": "Block 1", "SMILES": "Cc1cnc(Nc2ccc(OCCN3CCCC3)cc2)nc1Nc1cccc(S(=O)(=O)NC(C)(C)C)c1", "concentration": "10 µM"}
{"target": "Transcription initiation factor TFIID subunit 1, BD1 (TAF1, Homo sapiens, UniProt P21675)", "test": "thermal stability, DSF", "ΔTm": "0.01 °C"}
{"target": "Bromodomain and WD repeat-containing protein 1, BD2 (BRWD1, Homo sapiens, UniProt Q9NSI6)", "test": "thermal stability, DSF", "ΔTm": "-0.1 °C"}
{"target": "Protein polybromo-1, BD3 (PBRM1, Homo sapiens, UniProt Q86U86)", "test": "thermal shift", "ΔTm": "-0.07 ± 0.18 °C"}
{"target": "Bromodomain-containing protein 3, BD1 (BRD3, Homo sapiens, UniProt Q15059)", "test": "thermal stability, DSF", "ΔTm": "3.34 °C"}
{"target": "Transcription initiation factor TFIID subunit 1-like, BD1 (TAF1L, Homo sapiens, UniProt Q8IZX4)", "test": "thermal stability, DSF", "ΔTm": "0.41 °C"}
{"target": "Bromodomain adjacent to zinc finger domain protein 2B, bromodomain (BAZ2B, Homo sapiens, UniProt Q9UIF8)", "test": "thermal stability, DSF", "ΔTm": "-0.13 °C"}
{"target": "Protein polybromo-1, BD1 (PBRM1, Homo sapiens, UniProt Q86U86)", "test": "thermal stability, DSF", "ΔTm": "0.12 °C"}
{"target": "Transcription intermediary factor 1-alpha (TRIM24, Homo sapiens, UniProt O15164)", "test": "thermal stability, DSF", "ΔTm": "0 °C"}
{"target": "Bromodomain-containing protein 2, BD2 (BRD2, Homo sapiens, UniProt P25440)", "test": "thermal stability, DSF", "ΔTm": "2.49 °C"}
{"target": "Histone acetyltransferase KAT2B (KAT2B, Homo sapiens, UniProt Q92831)", "test": "thermal stability, DSF", "ΔTm": "0.29 °C"}
{"target": "Peregrin, bromodomain (BRPF1, Homo sapiens, UniProt P55201)", "test": "thermal stability, DSF", "ΔTm": "0.94 °C"}
{"target": "Protein polybromo-1, BD6 (PBRM1, Homo sapiens, UniProt Q86U86)", "test": "thermal shift", "ΔTm": "0.58 ± 0.08 °C"}
{"data": "Block 2", "cell line": "Huh-7", "concentration": "10 µM", "time": "24 h"}
{"Compound": "CCN(CC)CCOC(=O)C(c1ccccc1)c1ccccc1", "viability": "89.6%"}
{"Compound": "CCOC(=O)[C@H](CCc1ccccc1)N[C@@H](C)C(=O)N1[C@H](C(=O)O)C[C@@H]2CCC[C@@H]21", "viability": "99.8%"}
{"Compound": "CCCN(CCC)CCc1cccc2c1CC(=O)N2", "viability": "95.7%"}
{"Compound": "Nc1c2c(nc3ccccc13)CCCC2", "viability": "93%"}
{"Compound": "CCCCCC(=O)O[C@]1(C(C)=O)CC[C@H]2[C@@H]3CCC4=CC(=O)CC[C@]4(C)[C@H]3CC[C@@]21C", "viability": "63.8%"}
{"Compound": "Nc1ccn([C@@H]2O[C@H](CO)[C@@H](O)[C@@H]2O)c(=O)n1", "viability": "50.4%"}
{"Compound": "CC1(C)OC(=O)NC1=O", "viability": "97.3%"}
{"Compound": "C[C@](N)(Cc1ccc(O)c(O)c1)C(=O)O", "viability": "86.6%"}
{"Compound": "CN(C)CCOc1ccc(/C(=C(/CCCl)c2ccccc2)c2ccccc2)cc1", "viability": "84.6%"}
{"Compound": "O=C(O)c1ccc(S(=O)(=O)N(Cl)Cl)cc1", "viability": "99.1%"}
{"Compound": "OC[C@@H](O)[C@@H](O[C@@H]1O[C@H](CO)[C@H](O)[C@H](O)[C@H]1O)[C@H](O)[C@@H](O)CO", "viability": "89.7%"}
{"Compound": "CCOC(=O)OC(C)OC(=O)[C@@H]1N2C(=O)[C@@H](NC(=O)[C@H](N)c3ccccc3)[C@H]2SC1(C)C (stereo partly shown)", "viability": "96.7%"}
{"Compound": "CC1(C)S[C@@H]2[C@H](NC(=O)[C@H](N)c3ccc(O)cc3)C(=O)N2[C@H]1C(=O)O", "viability": "97.1%"}
{"Compound": "CN(Cc1cc(Br)cc(Br)c1N)C1CCCCC1", "viability": "101%"}
{"data": "Block 3", "Compound": "CCNC(=O)c1cc2c(N3CCOC[C@@H]3C)ccnc2[nH]1", "effect on": "ligand displacement", "method": "radioligand", "concentration": "10 µM"}
{"target": "Histamine H3 receptor (HRH3, Homo sapiens, UniProt Q9Y5N1)", "inhibition [%]": 40.5}
{"target": "5-hydroxytryptamine receptor 2B (HTR2B, Homo sapiens, UniProt P41595)", "inhibition [%]": 47.1}
{"target": "Alpha-2A adrenergic receptor (ADRA2A, Homo sapiens, UniProt P08913)", "inhibition [%]": 18.1}
{"target": "Muscarinic acetylcholine receptor M2 (CHRM2, Homo sapiens, UniProt P08172)", "inhibition [%]": -1.26}
{"target": "Beta-3 adrenergic receptor (ADRB3, Homo sapiens, UniProt P13945)", "inhibition [%]": 14.3}
{"target": "Alpha-2C adrenergic receptor (ADRA2C, Homo sapiens, UniProt P18825)", "inhibition [%]": 3.16}
{"target": "Histamine H4 receptor (HRH4, Homo sapiens, UniProt Q9H3N8)", "inhibition [%]": 0.0286}
{"target": "Sigma non-opioid intracellular receptor 1 (SIGMAR1, Homo sapiens, UniProt Q99720)", "inhibition [%]": 24.3}
{"target": "Beta-2 adrenergic receptor (ADRB2, Homo sapiens, UniProt P07550)", "inhibition [%]": -6.09}
{"target": "D(2) dopamine receptor (DRD2, Homo sapiens, UniProt P14416)", "inhibition [%]": 12.3}
{"target": "Alpha-1B adrenergic receptor (ADRA1B, Homo sapiens, UniProt P35368)", "inhibition [%]": -2.4}
{"target": "Alpha-1A adrenergic receptor (ADRA1A, Homo sapiens, UniProt P35348)", "inhibition [%]": 1.88}
{"target": "Alpha-1D adrenergic receptor (ADRA1D, Homo sapiens, UniProt P25100)", "inhibition [%]": 8.58}
{"target": "5-hydroxytryptamine receptor 3A (HTR3A, Homo sapiens, UniProt P46098)", "inhibition [%]": -1.37}
{"data": "Block 4", "SMILES": "O=C(Nc1cccc(Nc2nccc(Nc3cccc(C(F)(F)F)c3)n2)c1)C1CC1", "effect on": "enzyme activity", "action": "inhibitor", "concentration": "0.5 µM", "relative to": "control"}
{"target": "Mitogen-activated protein kinase kinase kinase kinase 5 (MAP4K5, Homo sapiens, UniProt Q9Y4K4)", "remaining activity [%]": 94.9}
{"target": "Fibroblast growth factor receptor 2 (FGFR2, Homo sapiens, UniProt P21802)", "remaining activity [%]": 103}
{"target": "Dual serine/threonine and tyrosine protein kinase (DSTYK, Homo sapiens, UniProt Q6XUX3)", "remaining activity [%]": 93.8}
{"target": "Phosphorylase b kinase gamma catalytic chain, liver/testis isoform (PHKG2, Homo sapiens, UniProt P15735)", "remaining activity [%]": 107}
{"target": "Serine/threonine-protein kinase TAO1 (TAOK1, Homo sapiens, UniProt Q7L7X3)", "remaining activity [%]": 97.9}
{"target": "BDNF/NT-3 growth factors receptor (NTRK2, Homo sapiens, UniProt Q16620)", "remaining activity [%]": 71.6}
{"target": "RAF proto-oncogene serine/threonine-protein kinase (RAF1, Homo sapiens, UniProt P04049)", "remaining activity [%]": 98.7}
{"target": "Serine/threonine-protein kinase ULK1 (ULK1, Homo sapiens, UniProt O75385)", "remaining activity [%]": 105}
{"target": "Activated CDC42 kinase 1 (TNK2, Homo sapiens, UniProt Q07912)", "remaining activity [%]": 66.5}
{"target": "Serine/threonine-protein kinase PLK1 (PLK1, Homo sapiens, UniProt P53350)", "remaining activity [%]": 91.7}
{"target": "Serine/threonine-protein kinase D3 (PRKD3, Homo sapiens, UniProt O94806)", "remaining activity [%]": 91.8}
{"target": "Dual specificity tyrosine-phosphorylation-regulated kinase 2 (DYRK2, Homo sapiens, UniProt Q92630)", "remaining activity [%]": 106}
{"target": "Insulin receptor-related protein (INSRR, Homo sapiens, UniProt P14616)", "remaining activity [%]": 89.9}
{"target": "Serine/threonine-protein kinase VRK1 (VRK1, Homo sapiens, UniProt Q99986)", "remaining activity [%]": 88.2}
{"target": "Tyrosine-protein kinase HCK (HCK, Homo sapiens, UniProt P08631)", "remaining activity [%]": 102}
{"note": "For quick reference, copied from above (block 4):"}
{"target": "Fibroblast growth factor receptor 2 (FGFR2, Homo sapiens, UniProt P21802)", "remaining activity [%]": 103}
{"target": "Dual serine/threonine and tyrosine protein kinase (DSTYK, Homo sapiens, UniProt Q6XUX3)", "remaining activity [%]": 93.8}
{"target": "Phosphorylase b kinase gamma catalytic chain, liver/testis isoform (PHKG2, Homo sapiens, UniProt P15735)", "remaining activity [%]": 107}
{"target": "Serine/threonine-protein kinase TAO1 (TAOK1, Homo sapiens, UniProt Q7L7X3)", "remaining activity [%]": 97.9}
{"target": "BDNF/NT-3 growth factors receptor (NTRK2, Homo sapiens, UniProt Q16620)", "remaining activity [%]": 71.6}
{"target": "RAF proto-oncogene serine/threonine-protein kinase (RAF1, Homo sapiens, UniProt P04049)", "remaining activity [%]": 98.7}
{"target": "Serine/threonine-protein kinase ULK1 (ULK1, Homo sapiens, UniProt O75385)", "remaining activity [%]": 105}
